Results from different studies.
± marks the error that the study gave.

`COc1cccc(-c2cccc(Nc3nccc(NC(C)C)n3)c2)c1` — result for “Papp (A to B)”: 0.327 ± 0.119 ×10⁻⁶ cm/s (MDCKII-WT cells; 10 µM, pH 7.4).
The Papp of `C[C@@H]1O[C@@H](O[C@H]2[C@H](Oc3cc(O)c4c(c3)O[C@H](c3ccc(O)cc3)CC4=O)O[C@H](CO)[C@@H](O)[C@@H]2O)[C@H](O)[C@H](O)[C@H]1O` is reported as 0.359 ± 1.1 ×10⁻⁶ cm/s (PBS receiver; 50 mg/mL, 60 min, pH 6.8).
Under “Papp (A to B)”, `C[C@H]1O[C@@H](O[C@H]2[C@@H](O)C[C@H](O[C@H]3[C@@H](O)C[C@H](O[C@H]4CC[C@@]5(C)[C@H](CC[C@@H]6[C@@H]5C[C@@H](O)[C@]5(C)[C@@H](C7=CC(=O)OC7)CC[C@]65O)C4)O[C@@H]3C)O[C@@H]2C)C[C@H](O)[C@@H]1O` is recorded as 1.8 ± 0.3 ×10⁻⁶ cm/s (human EpiIntestinal microtissues; 5 µM, 2 h).
The Papp of `COc1cc2[nH]c(C)c(-c3ccccc3C)c(=O)c2cc1Cl` is reported as 191 ×10⁻⁶ cm/s (PAMPA; pH 7.4).
For `c1cncc(-c2cccc(Nc3nccc(NC4CCCCC4)n3)c2)c1`, “Papp (A to B)” read 7 ± 3.12 ×10⁻⁶ cm/s (MDCKII-WT cells; 10 µM, pH 7.4).
With `COc1cc2[nH]c(C)c(-c3ccc(Oc4ccccc4)cc3)c(=O)c2cc1Cl` the Papp was 41 ×10⁻⁶ cm/s (PAMPA; pH 7.4).
Under “Papp apical to basolateral”, `CC(C)NCC(O)COc1cccc2ccccc12` (stereo not drawn) is recorded as 12.1 ×10⁻⁶ cm/s (EpiIntestinal microtissues; 5 µM, 2 h, pH 6.5, basolateral pH 7.4).
`c1ccc(-c2cccc(Nc3nccc(NC4CCCCC4)n3)c2)cc1`: “Papp (B to A)” 0.069 ± 0.008 ×10⁻⁶ cm/s (MDCKII-WT cells; 10 µM, pH 7.4).
With `COc1cc2[nH]c(C)c(-c3ccc(O)cc3)c(=O)c2cc1Cl` the Papp was 8 ×10⁻⁶ cm/s (PAMPA; pH 7.4).

Some of these lines once more:
Under “Papp apical to basolateral”, `CC(C)NCC(O)COc1cccc2ccccc12` (stereo not drawn) is recorded as 12.1 ×10⁻⁶ cm/s (EpiIntestinal microtissues; 5 µM, 2 h, pH 6.5, basolateral pH 7.4).
